Experimental data from different studies.
Every numbered part comes from another study and shows a few of its results, in no order. Substitutions count along the parent as printed.

Study 1
Target: Histone acetyltransferase KAT6A, winged helix 2, GST fusion (KAT6A, Homo sapiens, UniProt Q92794, residues 85-181)
Technique: protein binding microarray
Molecule type: double-stranded DNA, one strand shown
Sample: in vitro
Concentration: not given
Setting: 8-mer, flanks averaged, mean of 2 arrays, mostly near background
Baseline: not given
Direction: higher = stronger binding
Construct (chain): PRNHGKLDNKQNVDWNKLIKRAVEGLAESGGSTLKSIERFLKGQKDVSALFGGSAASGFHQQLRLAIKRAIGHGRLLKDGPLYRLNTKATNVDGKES
`GACCCATC` has an E-score of -0.0746.
With `AACCGTAA` the E-score was -0.226.
`CAAAGAGG` gave an E-score of -0.0933.
`CTTTTTAA` gave an E-score of 0.0791.
For `AAACGCTA`, the E-score was -0.168.
`CACTTTCG` has an E-score of -0.126.
`AATACCGG` has an E-score of 0.0511.
The E-score of `CCGGATAG` is reported as 0.0016.
The E-score of `AACGAGCG` is reported as -0.0165.

Study 2
Target: Sal-like protein 4, full length isoform B (SALL4, Homo sapiens, UniProt Q9UJQ4-2, residues 1-616)
Technique: universal PBM
Molecule type: double-stranded DNA, one strand shown
Sample: in vitro
Concentration: not given
Setting: 8-mer, flanks averaged, mean of replicates
Direction: higher = stronger binding
Target sequence (chain): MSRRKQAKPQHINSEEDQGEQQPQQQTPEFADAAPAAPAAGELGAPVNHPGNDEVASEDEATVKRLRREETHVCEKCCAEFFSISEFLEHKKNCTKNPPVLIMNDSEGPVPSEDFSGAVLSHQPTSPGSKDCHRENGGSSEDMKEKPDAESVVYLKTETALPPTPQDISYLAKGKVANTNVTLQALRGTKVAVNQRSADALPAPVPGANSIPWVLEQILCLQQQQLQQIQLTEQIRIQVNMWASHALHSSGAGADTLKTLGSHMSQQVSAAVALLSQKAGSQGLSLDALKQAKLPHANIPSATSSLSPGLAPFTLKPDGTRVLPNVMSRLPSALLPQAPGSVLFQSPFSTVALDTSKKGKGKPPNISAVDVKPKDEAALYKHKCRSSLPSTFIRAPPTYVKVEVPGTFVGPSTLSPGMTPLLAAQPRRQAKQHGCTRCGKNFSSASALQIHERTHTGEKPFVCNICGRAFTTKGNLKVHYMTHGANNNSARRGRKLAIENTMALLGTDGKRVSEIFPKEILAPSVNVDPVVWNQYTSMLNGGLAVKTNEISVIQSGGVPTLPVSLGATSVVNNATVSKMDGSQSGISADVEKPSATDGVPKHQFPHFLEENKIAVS
`AGGTCAAT` gave an E-score of 0.207.
With `CGTTATAC` the E-score was 0.115.
`ACGTTCAG` has an E-score of -0.134.
`ATTAGTGC` has an E-score of 0.162.
For `GACAACCC`, the E-score was -0.269.
With `TCCACGAA` the E-score was 0.135.
The E-score of `AATTGACA` is reported as 0.143.
With `GAGAGCTC` the E-score was -0.189.

Study 3
Target: CCND2, cyclin fold, Cln2 fusion (human)
Technique: yeast growth competition, sequencing
Sample: yeast
Setting: weak parent motif
Baseline: not given
Direction: higher = stronger binding
Parent: GMNC docking peptide (human); KNAKRNLSSEFAN
`KMAKRNLSSEFAN [N2M]` — result for “normalised enrichment score”: 0.0837.
`KNADRNLSSEFAN [K4D]` — result for “normalised enrichment score”: 0.28.
`KNAKRNLSSGFAN [E10G]`: “normalised enrichment score” 0.186.
`KNAKRNLMSEFAN [S8M]` — result for “normalised enrichment score”: 0.443.
`KNAKINLSSEFAN [R5I]`: “normalised enrichment score” 0.231.
Under “normalised enrichment score”, `KNAKGNLSSEFAN [R5G]` is recorded as 0.126.
Under “normalised enrichment score”, `KNAKRNLSSSFAN [E10S]` is recorded as -0.122.
Under “normalised enrichment score”, `KNAKRRLSSEFAN [N6R]` is recorded as 0.0371.

Mixed results
`PhoQ, residues 284 288 289 292 302 303 SLGVVW` gave a fold induction of 16.3 (PhoP, residues 12 14 15 18 19 SPWRL (Escherichia coli, UniProt P23836); Sort-seq, measured: YFP reporter; E. coli; PhoQ-PhoP variant library, with: 10 µM Mg2+; baseline: high Mg2+ state, higher = stronger signaling).

For quick reference, copied from above (study 1):
The E-score of `AACGAGCG` is reported as -0.0165.
